Measured values collected from several papers.
Each line is one published result; not all experiments were run side by side. Several values in a cell are separate wells, animals, samples, runs or records. ± marks the error that the study gave. In brackets after ≈: the same amount, converted by molar mass.

Structure (SMILES)	assay	test system	setting	how to read	endpoint	result
O=c1c2ccccc2[se]n1CCCCCCn1[se]c2ccccc2c1=O	shake-flask, RP-HPLC	isopropyl alcohol	24 h, 25 °C		solubility	980 ± 60 µg/mL (≈ 2050 µM)
CN1CCC[C@]1(C)/C=C/S(=O)(=O)NC(=O)Nc1c2c(cc3c1CCC3)CC=C2		human, plasma	oral, 100 mg twice daily of parent drug, day 14, metabolite of dosed drug		AUC(0-tau)	501 µg·h/mL
CN([O-])C(=O)CN1CCN(CC(=O)N(C)[O-])CCN(Cc2ccccn2)CC1.[89Zr+4]		mouse, blood	intravenous, 24 h		tracer uptake	0.33 %ID/g
CCCC[C@H](NC(=O)COCCOCCNC(=O)CN1CCN(CC(=O)O)CCN(CC(=O)O)CC1)C(=O)N[C@H]1CC(=O)NCCCC[C@@H](C(N)=O)NC(=O)[C@H](Cc2c[nH]c3ccccc23)NC(=O)[C@H](CCCNC(=N)N)NC(=O)[C@@H](Cc2ccccc2)NC(=O)[C@H](Cc2c[nH]cn2)NC1=O [fluorine-18 labelled]		C57 mice B16/F10 melanoma, urine	intravenous, dose not given, 1 h, with: NDP-MSH 10 µg blockade		urinary excretion	77.8 ± 3.5%
[123I]c1ccc2nc(-c3ccc(-n4ccnn4)nc3)cn2c1		male Wistar rat, lung	intravenous, 4 MBq, 1 h		tracer uptake	0.142 %ID/g
C=C(NC(=O)c1csc(-c2nc3c(cc2O)-c2nc(cs2)C(=O)NC(C(C)O)C(=O)NC(=C(C)OC)c2nc(cs2)C(=O)NC2c4nc(cs4)C(=O)NC(COC(=O)c4c5c6c(cccc6n4O)COC(=O)C(OC4CC(C)(O)C(N(C)C)C(C)O4)C2OC5)c2nc-3cs2)n1)C(N)=O (stereo not drawn)		ICR mice, Streptococcus pneumoniae ATCC 49169 infected, immunocompromised, blood	intravenous, 16 mg/kg once daily		AUC(0-t)	1.26 µM·h
CC[C@H](C)[C@@H](C(=O)N[C@@H](CC(C)C)C(=O)N[C@@H](CO)C(=O)N[C@@H](CO)C(=O)N[C@H](C(=O)N[C@@H](CCC(=O)O)C(=O)N[C@H](C(=O)NCC(=O)N[C@@H](CO)C(=O)N[C@@H](CC(N)=O)C(=O)N[C@H](C(=O)N1C[C@H](O)C[C@H]1C(N)=O)[C@@H](C)O)C(C)C)[C@@H](C)O)N(C)C(=O)[C@H](C)NC(=O)CN(C)C(=O)[C@H](Cc1ccccc1)NC(=O)[C@H](CO)NC(=O)[C@H](CO)NC(=O)[C@H](CCCNC(=N)N)NC(=O)[C@H](CCC(N)=O)NC(=O)[C@H](CC(C)C)NC(=O)[C@H](Cc1ccccc1)NC(=O)[C@H](Cc1c[nH]cn1)NC(=O)[C@H](C)NC(=O)[C@H](CC(C)C)NC(=O)[C@H](CCCNC(=N)N)NC(=O)[C@H](CCC(=O)O)NC(=O)[C@@H](NC(=O)[C@H](C)NC(=O)[C@@H]1CSSC[C@H](NC(=O)[C@H](CCCNC(=N)N)NC(=O)CC[C@H](NC(=O)CCCCCCCCCCCCCCCCCCC(=O)O)C(=O)O)C(=O)NCC(=O)N[C@@H]([C@@H](C)O)C(=O)N[C@@H](C)C(=O)N[C@@H]([C@@H](C)O)C(=O)N1)[C@@H](C)O	RP-HPLC	aqueous solution	7 days, pH 7.5, 40 °C		degradation	10%
CCCN(C)c1cc(C(F)(F)F)nc(SCCC(=O)NCc2ccco2)n1		Wistar rat, urine and plasma	intraperitoneal, 25 mg/kg		renal clearance	0.0097 mL/min
CCCCN1C(=O)c2cccc3c(NCCCCCN4CCOCC4)ccc(c23)C1=O		water	pH 6.0		absorption maximum	452 nm
C=C[C@]1(C)C[C@@H](OC(=O)CSc2ccc(NC(=O)c3ccco3)cc2)[C@]2(C)[C@H](C)CC[C@]3(CCC(=O)[C@H]32)[C@@H](C)[C@@H]1O		M. gallisepticum-infected chickens, plasma	intramuscular, 80 mg/kg single dose		absorption half-life	4.5 min and 4.2 min
COC1C=COC2(C)Oc3c(C)c(O)c4c(c3C2=O)C2=NC3(CCN(CC(C)C)CC3)NC2=C(NC(=O)C(C)=CC=CC(C)C(O)C(C)C(O)C(C)C(OC(=O)c2cncnc2)C1C)C4=O (stereo not drawn)		CD-1 mouse female, plasma	intravenous, 5 mg/kg		clearance	3.92 mL/min/kg
COc1cccc(OC)c1-c1cc(C(=O)NC2(C(=O)O)C3CC4CC(C3)CC2C4)nn1-c1ccc(C(=O)N(C)CCCN(C)C(=O)[C@H](CCCCNC(=O)[C@H](CC(C)C)NC(=O)C2OC2C(=O)O)NC(=O)CN2CCN(CC(=O)[O-])CCN(CC(=O)[O-])CCN(CC(=O)[O-])CC2)cc1C(C)C.[177Lu+3] (mixture of isomers)		mouse, HT-29 xenograft	72 h post injection, biodistribution	relative to: tumour over liver uptake	tumour-to-liver ratio	3.8
O=C(O)/C=C\c1cc2ccoc2cc1O[C@@H]1O[C@H](CO)[C@@H](O)[C@H](O)[C@H]1O	post-procedure stability	rat plasma	1000 ng/mL, 1 h, room temperature		accuracy	84.7%
CCCCCCCCCCCCCCCOC(=O)/C=C/c1cc(O)c(O)c(OC)c1		red blood cells	concentration not given	relative to: Triton X-100	hemolysis	0.4%
CN1CCC[C@]1(C)/C=C/S(=O)(=O)NC(=O)Nc1c2c(cc3c1C(O)CC3)CCC2 (stereo partly drawn)		human, plasma	oral, 50 mg twice daily of parent drug, metabolite of dosed drug	relative to: day 14 over day 1	AUC(0-tau) accumulation ratio	1.8
O=C(Nc1cnccc1-c1ccc([18F])nc1)c1ccnc(NC(=O)C2CC2)c1	PET imaging	FVB/NJ mice, both sexes, brain	intravenous, 10 min post-injection, P-gp inhibited, with: tariquidar 15 mg/kg iv, 2 h before		median SUV	0.268
C=CC(=O)Nc1cc(Nc2nccc(-c3cn(C)c4ccccc34)n2)c(OC)cc1N(C)CCNC	storage stability	human plasma	5 h, -80 °C, low QC level		recovery	94.5%
CC1(C)OCCc2cc(C(=O)N3CCC(c4nc(-c5ccccc5)n[nH]4)CC3)ccc21		CD-1 mouse liver microsomes	pH 7.4, with: NADPH		intrinsic clearance, scaled	2320 mL/min/kg
N=C(N)NCCC[C@@H]1NC(=O)[C@H](CO)NC(=O)[C@@H](NC(=O)[C@H](CO)NC(=O)[C@H](CO)NC(=O)[C@H](Cc2c[nH]c3ccccc23)NC(=O)CNC(=O)[C@H](CO)NC(=O)[C@@H](N)Cc2c[nH]c3ccccc23)CSSC[C@@H](C(=O)NCC(=O)O)NC(=O)[C@H](CO)NC1=O		patients, plasma	intravenous, 5 mg/kg, thrice weekly, geometric mean		clearance	1280 L/h
CN(O)C(=O)CCC(=O)NCCCN(CCCCN(CCCNC(=O)CCC(=O)N(C)O)C(=O)CCC(=O)N(C)O)C(=O)CCC(=O)N(C)O.[89Zr]		PBS	1 days, pH 7, 37 °C		intact compound	98.5 ± 0.7%
CCCCN1C(=O)c2cccc3c(NCCCN4CCOCC4)ccc(c23)C1=O		dichloromethane			absorption maximum	436 nm
O=Cc1cc(C(F)(F)F)ccc1B(O)O	chemical stability, HPLC-MS	borate buffered saline	pH 10.2, no N-acetyl-lysine		degradation rate constant	0 h⁻¹
CCCCCCCCCCCCCCCC(=O)N[C@@H](CCC(=O)NCCCC[C@H](NC(=O)[C@H](CCC(N)=O)NC(=O)[C@H](Cc1c[nH]cn1)NC(=O)[C@@H](NC(=O)[C@H](CCCCN)NC(=O)[C@H](CC(=O)O)NC(=O)[C@H](CCSC)NC(=O)[C@H](C)NC(=O)[C@@H](NC(=O)[C@H](CO)NC(=O)[C@H](Cc1ccc(O)cc1)NC(=O)[C@H](CC(=O)O)NC(=O)[C@H](CO)NC(=O)[C@@H](NC(=O)[C@H](Cc1ccccc1)NC(=O)[C@@H](NC(=O)CNC(=O)[C@H](CCC(=O)O)NC(=O)[C@H](C)NC(=O)[C@H](Cc1ccc(O)cc1)NCC(F)(F)F)[C@@H](C)O)[C@@H](C)CC)[C@@H](C)CC)[C@@H](C)CC)C(=O)N[C@@H](CC(=O)O)C(=O)N[C@@H](Cc1ccccc1)C(=O)N[C@H](C(=O)N[C@@H](CC(N)=O)C(=O)N[C@@H](Cc1c[nH]c2ccccc12)C(=O)N[C@@H](CC(C)C)C(=O)N[C@@H](CC(C)C)C(=O)N[C@@H](C)C(=O)N[C@@H](CCC(N)=O)C(=O)N[C@@H](CCCCN)C(=O)NCC(=O)N[C@@H](CCCCN)C(=O)N[C@@H](CCCCN)C(=O)N[C@@H](CC(N)=O)C(=O)N[C@@H](CC(=O)O)C(=O)N[C@@H](Cc1c[nH]c2ccccc12)C(=O)N[C@@H](CCCCN)C(=O)N[C@@H](Cc1c[nH]cn1)C(=O)N[C@@H](CC(N)=O)C(=O)N[C@H](C(=O)N[C@H](C(=O)N[C@@H](CCC(N)=O)C(=O)O)[C@@H](C)O)[C@@H](C)CC)C(C)C)C(=O)O	GIPR luciferase bioassay	C57BL/6 mice, male, serum	subcutaneous, 1.25 µg, 1 h, below detection limit		serum concentration	25 nM
CCCCN1C(=O)c2cccc3c(NCCCCN4CCOCC4)ccc(c23)C1=O		DMF			absorption maximum	441 nm
